Published values of several laboratories.
Parts stem from different laboratories: compare values within a part only. Several values in a cell are separate wells, animals, samples, runs or records.

Block 1 — technique: competition protein-binding microarray; form: double-stranded DNA, one strand shown; medium: in vitro; concentration: 2 µM; with: Pho4 competitor, 0.05 µM; direction: higher = stronger binding; shared flanks, not repeated: … GTCTTGATTCGCTTGACGCTGCTG
Target: Centromere-binding protein 1, full length, His-tagged (CBF1, Saccharomyces cerevisiae, UniProt P17106, residues 1-351)
UniProt P17106, sequence (whole entry, looked up): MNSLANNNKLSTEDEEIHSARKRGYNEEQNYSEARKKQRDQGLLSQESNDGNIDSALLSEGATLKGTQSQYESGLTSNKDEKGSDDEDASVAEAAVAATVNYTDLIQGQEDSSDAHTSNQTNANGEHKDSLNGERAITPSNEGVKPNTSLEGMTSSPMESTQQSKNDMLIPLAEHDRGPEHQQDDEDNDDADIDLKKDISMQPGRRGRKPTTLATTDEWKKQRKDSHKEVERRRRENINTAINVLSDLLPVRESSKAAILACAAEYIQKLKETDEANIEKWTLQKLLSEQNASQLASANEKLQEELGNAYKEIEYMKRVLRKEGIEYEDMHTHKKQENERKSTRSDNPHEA
Setting: whole 60-bp probe, lowest competitor level
For `TGCGCAACAACTTGGGTTGTGGGTGTATGTCTAGAA`, the fluorescence intensity was 70.7 a.u.
`GTAGTCCTCTTTCGTCACGTCAAAATTTCAGATCCT` has a fluorescence intensity of 87.8 a.u.
`CTTCTGTAAATTTTTCACGTGACCTGACGCGCCCCG` has a fluorescence intensity of 6900 a.u.
`ACATAGTAGGAAAATAATGTGCGTAGAATGATAAGA` gave a fluorescence intensity of 91.2 a.u.
`TGTTATTAACGTACCCACGCACAGTGGTGCTATCCA` has a fluorescence intensity of 56.3 a.u.
`GATAGACGAGAAGGACACATGGAGGATTTGACAGGC` gave a fluorescence intensity of 76.5 a.u.
`ATCATCGTAGATACCCACGTATAAATCAGTAACGCC` gave a fluorescence intensity of 78.2 a.u.
For `CCAACAAACCTTTCACACGTGGTCGGATTCAAGTTC`, the fluorescence intensity was 1090 a.u.

Block 2 — technique: protein binding microarray; form: double-stranded DNA, one strand shown; medium: in vitro; concentration: not given; reference: not given; direction: higher = stronger binding
Target: Histone acetyltransferase KAT6A, winged helix 2, GST fusion (KAT6A, Homo sapiens, UniProt Q92794, residues 85-181)
Setting: 8-mer, flanks averaged, mean of 2 arrays, mostly near background
Construct (chain): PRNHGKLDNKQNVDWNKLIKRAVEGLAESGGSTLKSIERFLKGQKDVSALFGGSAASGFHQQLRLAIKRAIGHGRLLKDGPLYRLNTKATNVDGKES
The E-score of `CCTGTTCG` is reported as 0.0648.
With `ATCACCTG` the E-score was -0.178.
The E-score of `ATACTCCA` is reported as -0.0796.
With `ACAGCCGA` the E-score was -0.14.
With `CAAGACCC` the E-score was -0.101.
For `CCGCGGTA`, the E-score was 0.132.
The E-score of `CAGCTTTA` is reported as 0.0204.
`GAGCCAGA` has an E-score of -0.0554.
With `ACTGGTAT` the E-score was 0.0577.
For `AGTAGAGA`, the E-score was 0.131.

Block 3 — technique: protein-binding microarray; form: double-stranded DNA, one strand shown; medium: in vitro; concentration: 2540 nM top; setting: 60-bp whole probe; with: salmon DNA 0.4 mg/ml; reference: random background probes; direction: higher = stronger binding; shared flanks, not repeated: GCCTAGCAC … GTCTTGATTCGCTTGACGCTGCTG
Target: Interferon regulatory factor 3, full length, phosphomimetic (IRF3, Homo sapiens, UniProt Q14653, residues 1-427, S386D/S396D/S398D/S402D/T404D/S405D)
UniProt Q14653, sequence (whole entry, unmodified, looked up): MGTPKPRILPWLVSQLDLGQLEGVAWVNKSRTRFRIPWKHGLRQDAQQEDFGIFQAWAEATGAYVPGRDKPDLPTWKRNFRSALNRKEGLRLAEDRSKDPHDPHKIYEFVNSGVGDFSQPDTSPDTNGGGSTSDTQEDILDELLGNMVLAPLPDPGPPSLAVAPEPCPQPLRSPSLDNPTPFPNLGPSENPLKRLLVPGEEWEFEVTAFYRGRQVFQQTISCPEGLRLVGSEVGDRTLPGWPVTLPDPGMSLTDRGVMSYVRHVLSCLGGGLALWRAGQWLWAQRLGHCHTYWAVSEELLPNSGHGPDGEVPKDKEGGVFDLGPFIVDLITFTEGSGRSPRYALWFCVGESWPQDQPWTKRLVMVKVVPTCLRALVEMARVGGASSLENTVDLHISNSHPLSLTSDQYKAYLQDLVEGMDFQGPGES
`TTAGGTTTCGGGACAGGGTTAGTGCTA`: “fitted relative affinity” 3.89 z-score.
Under “fitted relative affinity”, `GACGAACTGAGTTTCGGGACGTGCTAG` is recorded as 2.27 z-score.
`CTTTTTTTTTTTTTCTGATCGTGCTAG`: “fitted relative affinity” 3.19 z-score.
For `TTAGGTATCGACACTGGGATAGTGCTA`, “fitted relative affinity” read 0.334 z-score.
For `TTGGAACTGGGGTATCGATTAGTGCTA`, “fitted relative affinity” read -0.533 z-score.
For `TTAGATTTCAGCTTCGATTAGTGCTAG`, “fitted relative affinity” read 0.627 z-score.
`TTAGGTTCCCTTTTCCTATAGTGCTAG`: “fitted relative affinity” 7.8 z-score.
Under “fitted relative affinity”, `GACGGTTTCGGGTAACGGGACGTGCTA` is recorded as 4.13 z-score.

Single results of other studies
`PhoQ, residues 284 288 289 292 302 303 QWGLFV` has a fold induction of 5.51 and 10.6 (PhoP, residues 12 14 15 18 19 LWHSL (Escherichia coli, UniProt P23836); Sort-seq, item: YFP reporter; E. coli; PhoQ-PhoP variant library, with: 10 µM Mg2+; reference: high Mg2+ state, higher = stronger signaling).
